Experimental data collected from several papers.
± marks the error that the study gave.

SMILES | target or system | assay | test system | setting | how to read | endpoint | value
CC(C)(C)c1cc(-c2ccc3cccnc3n2)nc(-c2ccc3cccnc3n2)c1.COc1ccncc1.[Cl-].[Cl-].[Ru+2].c1ccc2cc3nc4c5cccnc5c5ncccc5c4nc3cc2c1 | A-375 | resazurin |  | with: light 633 nm, 100 J/cm2 | relative to: dark EC50 over light EC50 | phototoxicity index | 41
CC[n+]1cccc2cc(/C=N/NC(=O)c3ccc4ccc(C(=O)N/N=C/c5ccc6c(ccc[n+]6CC)c5)nc4n3)ccc21 | hp2 hairpin duplex DNA | FRET melting |  | 1 µM |  | ΔTm | 1.4 ± 0.5 °C
CCN(CC)CC(=O)Nc1cccc(-n2cc(-c3ccc4ccc(-c5cn(-c6cccc(NC(=O)CN(CC)CC)c6)nn5)cc4c3)nn2)c1 | RCC4 | PCR angiogenesis array, refers to: COL18A1 |  | 5 x IC50, 4 h, normoxia | relative to: untreated | fold regulation | -1.21
CN1CCCNC(=O)c2cccc(c2)C(=O)NCCCN(C)CCCNc2cccc3c2C(=O)c2cccc(c2C3=O)NCCC1 | SAS | RNA-Seq, refers to: ERBB2 mRNA |  | 1 µM, 6 h | relative to: untreated cells | log2 fold change | -0.608
COc1ccccc1-c1ccncc1C(=O)Nc1nnc(OCc2ccc(Cl)cc2)s1 | DLD-1 BRCA2 wild-type | immunofluorescence |  | 10 µM, 96 h |  | γH2AX foci-positive nuclei | 24.7%
[Cl-].[Cl-].[Ru+2].c1cc(-c2ccc3cccnc3n2)nc(-c2ccc3cccnc3n2)c1.c1ccc2cc3nc4c5cccnc5c5ncccc5c4nc3cc2c1 | A-375 | photocytotoxicity, resazurin |  | visible light 400-700 nm, 20 mW, 100 J/cm2 |  | EC50 | 4.87 µM
COC1CN([C@H]2CC[C@H]([C@@]3(C)Oc4c(Cl)cc(C(=O)NCc5c(SC)cc(C)[nH]c5=O)c(C)c4O3)CC2)C1 |  | RNA-seq, refers to: MAK | human, whole blood | dose not given, 24 h | relative to: pretreatment baseline | log2 fold change | 2.46
Cc1ncsc1-c1ccc(C(C)NC(=O)C2CC(O)CN2C(=O)C(NC(=O)CCCCCCCCCCN2CCCC(Nc3ncc(Cl)c(Nc4ccccc4S(=O)(=O)C(C)C)n3)C2)C(C)(C)C)cc1 (centres unmarked) | 22Rv1 | RNA-seq, refers to: NME6 mRNA |  | concentration not given | relative to: DMSO | log2 fold change | -1.12
O=C(N/N=C/c1ccc(C[n+]2ccccc2)cc1)c1cccc(C(=O)N/N=C/c2ccc(C[n+]3ccccc3)cc2)c1 | MYC parallel G4 DNA | FRET melting |  | 1 µM, DNA 0.2 µM |  | ΔTm | 2.2 ± 0.2 °C
CNS(=O)(=O)Nc1nccc(Cc2c(C)c3ccc(Oc4ncccc4F)cc3oc2=O)c1F | SBC-5 | cell viability |  | 7 days |  | IC50 | > 1 µM
CO[C@@H]1[C@@H](OC(N)=O)[C@@H](O)[C@H](Oc2ccc3c(O)c(NC(=O)c4ccc(O)c(CC=C(C)C)c4)c(=O)oc3c2C)OC1(C)C | DLD-1 BRCA2-/- |  |  | 100 µM, replicate 1 |  | colony count | 0.1

Some of these lines once more:
SMILES | target or system | assay | test system | setting | how to read | endpoint | value
COc1ccccc1-c1ccncc1C(=O)Nc1nnc(OCc2ccc(Cl)cc2)s1 | DLD-1 BRCA2 wild-type | immunofluorescence |  | 10 µM, 96 h |  | γH2AX foci-positive nuclei | 24.7%
[Cl-].[Cl-].[Ru+2].c1cc(-c2ccc3cccnc3n2)nc(-c2ccc3cccnc3n2)c1.c1ccc2cc3nc4c5cccnc5c5ncccc5c4nc3cc2c1 | A-375 | photocytotoxicity, resazurin |  | visible light 400-700 nm, 20 mW, 100 J/cm2 |  | EC50 | 4.87 µM
